Published values pooled from the literature.
Lines come from different studies, so protocols differ.

| SMILES | test | system | conditions | measurement | result |
| --- | --- | --- | --- | --- | --- |
| Cc1c(C(=O)O)ccc2c3n(nc12)[C@@H]1[C@H](C3)N(CC2CC2)[C@@]2(C(=O)Nc3cc(Cl)ccc32)[C@H]1c1cccc(Cl)c1F | – | Caco-2 | – | efflux ratio | 1.2 |
| N=C(N)c1ccc(OCCCCCCCCOc2ccc(C(=N)N)cc2)cc1 | haemolysis | sheep | 200 µg/mL, 1 h | haemolysis | 0% |
| Cn1nc2c(=O)n(C3CC3)cnc2c1[C@](O)(c1cnc(C(F)(F)F)c(Cl)c1)C(F)(F)F | – | Caco-2 | – | Papp B→A | 85 ×10⁻⁶ cm/s |
| COc1cc(C(=O)NC2CCN(C)CC2)c(F)cc1Nc1ncc(C(F)(F)F)c(Oc2cccc3c2C(=O)N(C)C3)n1 | – | human, plasma | oral, 50 mg, multiple doses, once daily, patients | CL/F | 290 mL/min |
| COc1ccc(Oc2ccc3c(=O)c4c(F)cc(Cl)cc4[nH]c3c2)cc1 | metabolic stability | mouse, liver microsomes | 1 µM, pH 7.4 | microsomal CLint | 15.1 µL/min/mg |
| CCCCNC(=O)NS(=O)(=O)c1ccc(C)cc1 | metabolic stability | Sprague-Dawley rat, hepatocytes | 0.5 µM, pH 7.4 | hepatocyte CLint | 3.3 µL/min/10⁶ cells |
| c1ccc(CCNc2nc(-c3ccccn3)nc3ccccc23)nc1 | – | PAMPA | 10 µM, 3 h, pH 7.4 | Papp | 20 ×10⁻⁶ cm/s |
| CN(c1ccc(F)cc1)c1c(-c2cc(Cl)ccn2)nc2ccccn12 | metabolic stability | rat, hepatocytes | – | hepatocyte CLint | > 300 µL/min/10⁶ cells |
| O=C(c1ccc(F)cc1)C1CCN(CCn2c(=O)[nH]c3ccccc3c2=O)CC1 | metabolic stability | dog, liver microsomes | 45 min | compound remaining | 45.1% |
| CCOC(=O)C1=C(CN2CCC[C@@H]2C(=O)Nc2ccc(B(O)O)cc2)NC(c2nccs2)=N[C@H]1c1ccc(F)cc1Br | – | CD-1 mouse, plasma | oral, 10 mg/kg | MRT(0-t) | 0.81 h |
| CC(C)n1c(Nc2cccnc2)nc2cnc(Nc3ccc(N4CCN(C)CC4)cc3)nc21 | – | male human, plasma | oral, 150 mg, single dose | AUC(0-inf) | 1410 ng·h/mL |
| COc1ccc(C[C@@H](C)[C@@H](C)Cc2ccc(OC)c(OC)c2)cc1OC | – | male beagle dog, plasma | oral, 1000 mg/kg/day, multiple doses, once daily | AUC(0-t) | 17800 ng·h/mL |
| COc1cccc(-c2n[nH]c(SCc3ccccn3)n2)c1OC | – | female Sprague-Dawley rat, plasma | intravenous, 1 mg/kg, 1.98 min, single dose | concentration | 9840 ng/mL |
| NC(=O)c1cccc(-c2nc(N3CCC(c4ccccn4)C3)c3ccccc3n2)c1 (stereo not shown) | metabolic stability | mouse, liver microsomes | – | microsomal CLint | 378 µL/min/mg |
| N#Cc1ccc(-c2csc(CNC(=O)[C@H]3CCCN(C(=O)N4CCCO4)C3)n2)cc1 | metabolic stability | male Sprague-Dawley rat, liver microsomes | 0.5 µM | microsomal CLint | 110 µL/min/mg |
| c1ccc(-c2nc(N3CCN(c4ccccn4)CC3)c3ccccc3n2)nc1 | metabolic stability | mouse, liver microsomes | – | microsomal CLint | 485 µL/min/mg |
| CCN1CCN(Cc2ccc(NC(=O)c3ccc(C)c(NC(=O)c4cncc(-c5cccs5)c4)c3)cc2C(F)(F)F)CC1 | – | mouse, plasma | intraperitoneal, 30 mg/kg, single dose | MRT | 4.12 h |
| Cc1ncsc1-c1ccc(CNC(=O)[C@@H]2C[C@@H](O)CN2C(=O)[C@@H](NC(=O)CCCCCCCCCCNC(=O)O[C@H]2C[C@@H](C)C=C3C=C[C@H](C)[C@H](CC[C@@H]4C[C@@H](O)CC(=O)O4)[C@H]32)C(C)(C)C)cc1 | – | C57BL/6 mouse, plasma | oral, 60 mg/kg, single dose | MRT(0-inf) | 10.2 h |
| c1ccc(-c2nc(N3CCCC3c3ccccn3)c3ccccc3n2)nc1 (stereo not shown) | metabolic stability | mouse, liver microsomes | – | microsomal CLint | 227 µL/min/mg |
| CCOC(=O)[C@@]12C[C@@H]1[C@@H](n1ccc3c(NC)nc(C#Cc4ccc(Cl)s4)nc31)[C@H](O)[C@@H]2O | – | male Sprague-Dawley rat, plasma | oral, 10 mg/kg, 8 h | concentration | 8.28 ng/mL |

| SMILES | test | system | conditions | measurement | result |
| --- | --- | --- | --- | --- | --- |
| Cc1nn(C2CC2)c(=O)c2nn(C)c(Cc3ccc(C(F)(F)F)c(C#N)c3)c12 | metabolic stability | human, hepatocytes | 0.5 µM, pH 7.4 | hepatocyte CLint | 1.5 µL/min/10⁶ cells |
| O=C(Nc1ccc(CN2CCOCC2)c(C(F)(F)F)c1)c1ccc(C#Cc2cccc3cnccc23)cn1 | – | Caco-2 | – | Papp A→B | 1.11 ×10⁻⁶ cm/s |
| c1ccc(-c2nc(N3CCCC(c4ccccn4)C3)c3ccccc3n2)nc1 (stereo not shown) | – | PAMPA | 10 µM, 3 h, pH 7.4 | Papp | 34.6 ×10⁻⁶ cm/s |
| O=C1c2ccncc2C(=O)c2c1[nH]c1ccccc21 | – | rat, plasma | intravenous, 5 mg/kg, single dose | MRT | 27.5 h |
| O=C(NCc1nc(-c2ccccc2)cs1)[C@H]1CCCN(C(=O)COCCF)C1 | metabolic stability | male Sprague-Dawley rat, liver microsomes | 0.5 µM | microsomal CLint | 66 µL/min/mg |
| CCc1cc(-c2noc(-c3cc(OC)nc(C4CCCC4)c3)n2)cc(C)c1OC[C@@H](O)CO | – | Wistar rat, plasma | oral, 3 mg/kg, 24 h, single dose | concentration | 78 ng/mL |
| N=C(N)c1ccc(OCCCOc2ccc(C(=N)N)cc2)cc1 | haemolysis | sheep | 200 µg/mL, 1 h | haemolysis | 0.4% |
| Nc1ncn([C@H]2C[C@H](O)[C@@H](CO)O2)c(=O)n1 | – | female C57BL/6 mouse, plasma | oral, 0.4 mg/kg | AUC(0-t) | 70 ng·h/mL |
| N=C(N)c1ccc(OCCSCCOc2ccc(C(=N)N)cc2)cc1 | haemolysis | sheep | 200 µg/mL, 1 h | haemolysis | 0.2% |
| CCn1ncc2c([C@](O)(c3ccc(C(F)(F)F)c(Cl)c3)C3CC3)n(C)nc2c1=O | metabolic stability | human, hepatocytes | 0.5 µM, pH 7.4 | hepatocyte CLint | 6.6 µL/min/10⁶ cells |
| CCONC(=O)N1CCC[C@H](C(=O)N[C@@H](C)c2nc(-c3ccc(C#N)cc3)cs2)C1 | metabolic stability | human, liver microsomes | 0.5 µM | microsomal CLint | 20 µL/min/mg |
| NCc1cc2c(cc1F)C(=O)N(C1CCC(=O)NC1=O)C2 (stereo not shown) | – | male cynomolgus monkey, plasma | oral, 0.3 mg/kg, 8 h | concentration | 0.15 ng/mL |
| COc1ccc([C@@H](O)c2cc(-c3ncnc4cc(N5CCOCC5)ccc34)c(F)cc2Cl)nn1 | – | human, plasma | oral, 150 mg, multiple doses, once daily, patients | Cmax | 1220 ng/mL |
| N#C[C@@]12C[C@@H]1[C@@H](n1cnc3c(N[C@@H](C4CCC4)C4CC4)nc(I)nc31)[C@H](O)[C@@H]2O | – | male Wistar rat, plasma | oral, 3 mg/kg | bioavailability | 13.1% |
| Nc1ccc(C=Cc2ccc([125I])cc2)cc1 | – | Swiss mouse, brain | intravenous, 5 µCi, 1 h | tracer uptake | 2.05 %ID/g |
| CC(=O)[O-].CC(=O)[O-].CC(=O)[O-].[177Lu+3] | – | mouse, liver | 1 h | tracer uptake | 72 %ID/g |
| CCn1ccc2c([C@](O)(c3ccc(C(F)(F)F)nc3)C3CC3)n(C)nc2c1=O | metabolic stability | male Sprague-Dawley rat, hepatocytes | 0.5 µM, pH 7.4 | hepatocyte CLint | 6.5 µL/min/10⁶ cells |
| O=C1CC[C@H](N2Cc3cc(N4CCN(CC5CCN(c6ccc([C@@H]7c8ccc(O)cc8CC[C@@H]7c7ccccc7)cc6)CC5)CC4)ccc3C2=O)C(=O)N1 | – | female Sprague-Dawley rat, plasma | intravenous, 5 mg/kg, fed | MRT(0-inf) | 6.51 h |
| Fc1cccc(Nc2nc(-c3ccccn3)nc3ccccc23)c1 | – | PAMPA | 10 µM, 3 h, pH 7.4 | Papp | 32.1 ×10⁻⁶ cm/s |
| O=c1c2c([nH]c3cc(Nc4ccc(OC(F)(F)F)cc4)ccc13)CCCC2 | metabolic stability | mouse, liver microsomes | 1 µM, pH 7.4 | microsomal CLint | 80.4 µL/min/mg |
